# Published values gathered from unrelated publications.
# A part holds a random share of what one study measured.
# UniProt Q9H2G2, sequence (whole entry, looked up): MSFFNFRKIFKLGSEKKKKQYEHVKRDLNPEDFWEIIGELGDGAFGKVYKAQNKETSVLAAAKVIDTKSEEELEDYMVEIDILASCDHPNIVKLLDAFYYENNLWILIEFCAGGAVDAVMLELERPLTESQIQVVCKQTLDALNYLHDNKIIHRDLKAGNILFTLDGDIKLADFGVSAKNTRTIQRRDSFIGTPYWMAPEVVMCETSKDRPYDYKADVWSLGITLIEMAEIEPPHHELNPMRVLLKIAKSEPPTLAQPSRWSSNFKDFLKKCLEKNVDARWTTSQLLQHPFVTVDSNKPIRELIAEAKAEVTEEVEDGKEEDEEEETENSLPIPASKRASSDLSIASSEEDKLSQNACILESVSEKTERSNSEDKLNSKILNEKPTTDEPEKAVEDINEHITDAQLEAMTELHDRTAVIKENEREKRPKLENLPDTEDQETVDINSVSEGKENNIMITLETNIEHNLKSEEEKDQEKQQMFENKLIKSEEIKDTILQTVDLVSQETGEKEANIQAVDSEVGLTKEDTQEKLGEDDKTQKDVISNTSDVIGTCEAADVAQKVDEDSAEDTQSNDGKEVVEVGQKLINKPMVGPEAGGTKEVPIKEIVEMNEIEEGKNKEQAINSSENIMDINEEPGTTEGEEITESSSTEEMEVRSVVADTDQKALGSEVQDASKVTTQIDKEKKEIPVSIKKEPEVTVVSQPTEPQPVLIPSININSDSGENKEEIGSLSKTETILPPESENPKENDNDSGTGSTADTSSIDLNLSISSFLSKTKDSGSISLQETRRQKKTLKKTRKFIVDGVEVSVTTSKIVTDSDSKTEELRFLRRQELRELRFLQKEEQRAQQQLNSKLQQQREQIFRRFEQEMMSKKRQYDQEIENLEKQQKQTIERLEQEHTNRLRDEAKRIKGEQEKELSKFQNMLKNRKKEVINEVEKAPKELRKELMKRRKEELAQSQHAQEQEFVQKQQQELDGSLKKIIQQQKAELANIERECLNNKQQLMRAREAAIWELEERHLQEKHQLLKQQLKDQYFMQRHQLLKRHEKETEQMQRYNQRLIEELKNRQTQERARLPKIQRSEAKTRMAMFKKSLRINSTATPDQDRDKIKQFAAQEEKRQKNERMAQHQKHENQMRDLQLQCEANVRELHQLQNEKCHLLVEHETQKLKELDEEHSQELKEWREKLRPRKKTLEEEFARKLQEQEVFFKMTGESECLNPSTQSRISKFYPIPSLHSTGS
# UniProt Q16513, sequence (whole entry, looked up): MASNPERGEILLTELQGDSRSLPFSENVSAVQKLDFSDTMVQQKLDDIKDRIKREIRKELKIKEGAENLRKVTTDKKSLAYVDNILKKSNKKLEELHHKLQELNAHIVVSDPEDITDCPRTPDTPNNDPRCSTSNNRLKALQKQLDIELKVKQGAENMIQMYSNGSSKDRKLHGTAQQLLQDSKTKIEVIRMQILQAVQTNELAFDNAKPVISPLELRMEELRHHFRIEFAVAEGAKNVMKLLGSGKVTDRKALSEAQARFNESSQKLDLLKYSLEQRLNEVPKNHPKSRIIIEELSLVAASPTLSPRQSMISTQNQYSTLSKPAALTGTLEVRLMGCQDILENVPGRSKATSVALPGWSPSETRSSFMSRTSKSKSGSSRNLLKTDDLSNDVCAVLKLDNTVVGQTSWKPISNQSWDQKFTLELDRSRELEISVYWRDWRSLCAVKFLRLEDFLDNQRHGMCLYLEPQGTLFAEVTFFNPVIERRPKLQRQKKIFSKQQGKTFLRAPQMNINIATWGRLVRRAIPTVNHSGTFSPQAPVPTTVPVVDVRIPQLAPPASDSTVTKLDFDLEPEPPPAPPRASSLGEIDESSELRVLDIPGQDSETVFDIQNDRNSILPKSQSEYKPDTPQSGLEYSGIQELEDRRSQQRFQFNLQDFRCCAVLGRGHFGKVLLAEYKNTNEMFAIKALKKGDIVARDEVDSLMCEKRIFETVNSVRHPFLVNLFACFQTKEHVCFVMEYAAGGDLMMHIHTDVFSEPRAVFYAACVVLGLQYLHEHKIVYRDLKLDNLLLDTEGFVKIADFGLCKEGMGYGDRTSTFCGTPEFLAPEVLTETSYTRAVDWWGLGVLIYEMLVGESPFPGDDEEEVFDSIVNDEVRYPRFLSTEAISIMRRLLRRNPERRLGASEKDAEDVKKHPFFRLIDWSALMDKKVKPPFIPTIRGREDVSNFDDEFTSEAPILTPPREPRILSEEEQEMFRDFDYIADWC
# UniProt Q8TD19, sequence (whole entry, looked up): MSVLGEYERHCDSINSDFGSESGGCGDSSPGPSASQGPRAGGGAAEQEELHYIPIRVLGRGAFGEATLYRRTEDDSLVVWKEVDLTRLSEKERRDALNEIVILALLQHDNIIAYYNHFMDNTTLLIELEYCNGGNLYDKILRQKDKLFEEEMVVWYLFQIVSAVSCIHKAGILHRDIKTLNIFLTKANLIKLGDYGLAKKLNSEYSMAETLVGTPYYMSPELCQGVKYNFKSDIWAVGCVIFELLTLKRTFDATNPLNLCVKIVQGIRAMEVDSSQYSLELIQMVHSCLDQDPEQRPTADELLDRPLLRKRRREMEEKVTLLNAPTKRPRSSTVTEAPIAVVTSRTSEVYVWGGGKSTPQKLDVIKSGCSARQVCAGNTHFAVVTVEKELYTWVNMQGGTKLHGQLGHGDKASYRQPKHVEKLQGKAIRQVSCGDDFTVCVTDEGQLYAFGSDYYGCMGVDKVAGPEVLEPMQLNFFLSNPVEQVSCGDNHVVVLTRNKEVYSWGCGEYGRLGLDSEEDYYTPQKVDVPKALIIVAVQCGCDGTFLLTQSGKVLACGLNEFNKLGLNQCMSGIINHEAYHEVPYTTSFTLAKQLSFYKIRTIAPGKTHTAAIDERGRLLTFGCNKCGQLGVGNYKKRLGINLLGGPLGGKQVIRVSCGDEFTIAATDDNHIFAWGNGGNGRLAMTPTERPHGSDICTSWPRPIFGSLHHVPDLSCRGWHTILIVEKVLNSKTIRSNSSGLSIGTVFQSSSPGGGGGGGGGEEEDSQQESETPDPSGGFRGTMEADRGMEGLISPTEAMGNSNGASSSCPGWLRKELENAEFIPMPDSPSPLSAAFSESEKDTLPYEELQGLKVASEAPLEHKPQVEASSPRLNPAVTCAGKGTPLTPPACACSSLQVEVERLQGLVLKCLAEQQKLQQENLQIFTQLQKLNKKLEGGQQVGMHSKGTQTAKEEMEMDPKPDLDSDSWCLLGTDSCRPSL

# Block 1
# Target: Ras GTPase-activating protein-binding protein 1, full length (G3BP1, Homo sapiens, UniProt Q13283)
# UniProt Q13283, sequence (whole entry, looked up): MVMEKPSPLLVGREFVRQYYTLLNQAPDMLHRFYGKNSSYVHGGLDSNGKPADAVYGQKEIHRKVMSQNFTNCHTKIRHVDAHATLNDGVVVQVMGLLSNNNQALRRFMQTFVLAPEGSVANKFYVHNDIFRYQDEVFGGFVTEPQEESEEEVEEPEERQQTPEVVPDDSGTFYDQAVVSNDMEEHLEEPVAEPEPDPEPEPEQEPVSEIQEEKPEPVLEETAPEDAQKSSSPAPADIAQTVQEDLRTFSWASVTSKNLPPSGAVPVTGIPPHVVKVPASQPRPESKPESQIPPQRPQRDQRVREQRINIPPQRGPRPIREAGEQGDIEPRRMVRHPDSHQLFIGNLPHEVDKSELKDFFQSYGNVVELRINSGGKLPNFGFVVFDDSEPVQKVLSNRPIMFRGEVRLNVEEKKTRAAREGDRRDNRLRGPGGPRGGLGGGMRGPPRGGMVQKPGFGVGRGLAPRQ
# Method: RNA Bind-n-Seq
# Form: RNA
# Medium: in vitro
# Tested at: 200 nM
# Setting: whole 134-nt RNA, ends assumed
# With: 150 mM KCl
# Baseline: input library
# Reading: higher = stronger binding
Strand,log2 enrichment
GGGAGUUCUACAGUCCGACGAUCCCUGUGCUACACAUCGUAUGUACCGAAUCGGAAAAAAAGGGAAAAAAAGGGAAAAAAAGGAAAGUAUUAUGUUACGCCGUUCGGAUCUGCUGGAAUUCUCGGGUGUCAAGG,-0.966
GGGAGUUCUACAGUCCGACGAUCCACAGACAACACGCACCCACACAGACACAGAGGGAAGGGGCUGGGAUGGGGACAGGGUGCACAGCAGGGCGGGGUAGGACCCCAGCCCCUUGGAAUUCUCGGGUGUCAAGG,1.88
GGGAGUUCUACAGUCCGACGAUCGCAGGAAGUAAAAACAAAUGGAAAUGCUUCGGAUAGUGGCAGGGGUGGGGGUUGCUAAGGAAAGGGUGAGAUGGGAGUGGGUAAAGAGUUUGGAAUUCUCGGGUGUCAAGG,0.753
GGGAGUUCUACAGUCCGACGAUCCAAGUCCUGUGCUACACAUCGUAUGUACCGAAUCGGGGUUUGGGUUUGGGUUUGGGAAAGUAUUAUGUUACGCCGUUCGGAUCUGCACUUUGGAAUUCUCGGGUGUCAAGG,0.803
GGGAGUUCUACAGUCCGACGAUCUCAAGUCCUGUGCUACACAUCGUAUGUACCGAAUCGGGUUGGGUUGGGUUGGGGAAAGUAUUAUGUUACGCCGUUCGGAUCUGCACUUCCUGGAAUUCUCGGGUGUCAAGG,1.35
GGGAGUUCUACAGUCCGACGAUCGCAGGAAGUAAAAACAAAUGGAAAUGCUUCGGAUUGUGGCAGGGGUGGGGGUUGCUAAGGAAAGGGUGGGAUGGGAGUGGGUAAAGAGUUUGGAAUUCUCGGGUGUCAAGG,1.12
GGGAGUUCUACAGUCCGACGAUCAGUCCUGUGCUACACAUCGUAUGUACCGAAUCGGCCCCGGGGCCCCGGGCCCCGGGGAAAGUAUUAUGUUACGCCGUUCGGAUCUGCACUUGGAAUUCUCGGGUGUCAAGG,-1.21
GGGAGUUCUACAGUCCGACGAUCUCCACCCCUUCUUCCUCCCUUUAACUUAUCCAUUCACUUAAAACAUUACCUGGUCAUCUGGUAAGCCCGGGACAGUAAGCCGAGUGGCUGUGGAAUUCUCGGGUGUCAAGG,0.563

# Block 2
# Target: Hepatocyte nuclear factor 3-alpha (Foxa1, Mus musculus, UniProt P35582, residues 1-468, full length assumed)
# Method: EMSA with sequencing
# Form: double-stranded DNA, one strand shown
# Medium: in vitro
# Tested at: 10 and 20 nM
# Setting: whole designed probe, mean of two concentrations, ends assumed
# Baseline: negative control set to 0
# Reading: higher = stronger binding
# Target sequence (chain): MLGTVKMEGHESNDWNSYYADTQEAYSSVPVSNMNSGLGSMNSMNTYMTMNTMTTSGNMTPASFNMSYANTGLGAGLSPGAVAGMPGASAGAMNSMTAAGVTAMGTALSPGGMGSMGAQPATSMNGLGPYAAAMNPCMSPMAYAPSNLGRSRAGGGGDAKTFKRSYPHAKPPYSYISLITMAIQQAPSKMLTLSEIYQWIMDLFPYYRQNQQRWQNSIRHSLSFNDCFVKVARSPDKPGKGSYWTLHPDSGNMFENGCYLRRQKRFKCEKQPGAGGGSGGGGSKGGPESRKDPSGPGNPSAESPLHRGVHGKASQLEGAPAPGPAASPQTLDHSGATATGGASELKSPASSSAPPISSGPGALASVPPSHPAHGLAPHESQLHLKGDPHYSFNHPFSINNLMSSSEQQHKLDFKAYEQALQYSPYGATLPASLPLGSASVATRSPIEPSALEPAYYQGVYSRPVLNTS
Strand,normalised bound fraction [ratio]
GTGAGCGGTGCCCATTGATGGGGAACGGGGTGCCAGGCTAGGACACAGAAGCCAACAGGAATCCCCAAAGGGAGGAAGTGGAGTCGGGGGTGTGGCAGCCGTGCTGAGATGCTCGGCCTTTATTTACTCTGGGCAGGGACCAAGATAGGCCACTGCAGGCCGGCACCCTGCCTCCCGGCTGCTGGAGCCCCTCCCTCCCAGGAACTGCCAGCCAGGAAATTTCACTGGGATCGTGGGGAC,0.38
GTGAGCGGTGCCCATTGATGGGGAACCAAGGCTGCTCACCCACTTCTTTAACCATTCTTCAAAAAAGTGAGCTGTTGTTATTGAACTTTTTATTATTACTTAATTACAAGAAAAAACAAAGTAAACAACCAAAAAAAATATAGTGTTGAGAAAATGCCAAGGCTGTTCACCCACTTCTTTAACCATTCTTCAAATTTACCATATATATATTTTTTTGACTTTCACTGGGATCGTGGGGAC,0.38
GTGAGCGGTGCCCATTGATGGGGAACATCTTCCCCCTCTTCCTTGCCCCACCAGCTCACCTTCCCGGGTTATTTGCAGATAGGAAAATAAATAAAGCCGGCATTCGTTAACCCTCTTCACGCGCATACTGCCAGAGCAAACAGATCTAACATGGTCCTTTGGCGACGCCAGGCTCCGGGAGAGCAAAGCACCGTGTCAGGGCCATGATCCGGGGTGGCCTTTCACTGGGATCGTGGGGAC,0.397
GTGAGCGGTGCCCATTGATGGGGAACCAATGGGGTAGGTCAGCCCCAGTGAACTCTCAAATGACCACTGAAGGAGGAAGTGAGTGCAGAGTGTGATACCACTCACATCCCAGCCCAGACTGTTTGCTCAGCTGGGAGGAGTGTTGCAATTCTTCTTCCTGCAGAGATAACACCCCTTCTCATGGCTTCAGGCATCACCTATCTCCTCTAGGCTGCGCTCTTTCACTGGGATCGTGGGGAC,0.193
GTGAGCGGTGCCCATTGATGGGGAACTGCTTTGTTTTTGAGAGAAGGTTTCATCTGAAACAGAAACAGACACACATACCACGAGCCCGATTACTATAGAACCGAAGAGACCTTTCCAGCAGATTACACTTCGGATGTAAAATGGCAATTTGACATAGACTAACAGTGTGATGTGAGCATCTGCGTAAAAAGGCGACATATGGAGCATGCCCAGTGTGGGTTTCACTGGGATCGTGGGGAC,0.0302
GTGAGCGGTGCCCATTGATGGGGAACTTTTTCATGTATAAATATATAATTTTATTTAATATTTAGATTTTATTCTTTTCTCTGAATTCATTATATACTACAAAAGTTATGGCATCTCAATGTAAACACAGATGCAGAAGAAAAGAGTTCTAATACCTTTATTACCTAAGAAGATAAAATATCATAGATGTGTGGAATTAAAAGAAAATTATCAAAGTCCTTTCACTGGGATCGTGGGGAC,0.35
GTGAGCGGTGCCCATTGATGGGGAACCCCTCATCCTGGGTGTCGGGGTGGGAGGTGTTCTCATCATGAATGGGAGGCGTACCCAGATCCAGCTCTGGTGACTCACCACCAAACCAGAGTGTAAACAAATGGCTGTGTGTCACACCATAATCGACATAGCAAGATATGATACATGCCAGGAGAGAAAAAGAAAGTGCTGATGGAAAAATAATCTCATTAGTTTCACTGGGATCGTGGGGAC,0.365
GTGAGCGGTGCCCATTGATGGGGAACCTGAATCCGCCTTCTGTCCCACACCCAACTCCTGCTCTGCCTCTGCAGCCACCTGCAGGCTCTCAGCGCACTCCTCAAAATCTATTTCTGCTGTGTTTACCCAACACCACCTGCAGGAAACTCCCTTGAAATTCCCAGGCCTTTCCCAGAGTTCCTCAGTTCCTTTTCTTAAAATTCCTGCTGTCCCCAAAGATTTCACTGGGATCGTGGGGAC,0.229

# Block 3
# SMILES: Nc1ncnc2c1cnn2-c1ccccc1
# Effect on: enzyme activity
# Mode: inhibitor
# Tested at: 0.5 µM
# Baseline: control
target,remaining activity [%]
"Serine/threonine-protein kinase N2 (PKN2, Homo sapiens, UniProt Q16513)",125
"Serine/threonine-protein kinase Nek9 (NEK9, Homo sapiens, UniProt Q8TD19)",110
"STE20-like serine/threonine-protein kinase (SLK, Homo sapiens, UniProt Q9H2G2)",98

# Further values, each from its own experiment
Structure (SMILES),cell line,method,tested at,time,measurement,result
Cn1cncc1[C@@](O)(COc1ccc(C#N)cc1-c1ccc(OC(F)(F)F)cc1)c1ccc(C#N)cc1,HEK293T,high-content imaging,10 µM,24 h,cells with altered mitochondria,15.6%
